# Measured values of several laboratories.
# Lines come from different studies, so protocols differ. Values joined by “and” are separate records of one study, mostly repeats; a detail may differ. ± gives the spread as reported.
Structure (SMILES),target or system,test,test system,setting,scale,measurement,result
CCCC[C@@H]1NC(=O)[C@@H](CC(C)C)NC(=O)[C@H](CCCCNC(=O)CN2CCN(CC(=O)O)CCN(CC(=O)O)CC2)NC(=O)NNC(=O)[C@H](Cc2c[nH]cn2)NC(=O)[C@@H](Cc2c[nH]c3ccccc23)NC1=O [copper-64 labelled],,,"Balb/c mice, blood","intravenous, dose not given",,tissue uptake,0.38 ± 0.13 %ID/g
COC1CN([C@H]2CC[C@H]([C@@]3(C)Oc4c(Cl)cc(C(=O)NCc5c(SC)cc(C)[nH]c5=O)c(C)c4O3)CC2)C1,,"RNA-seq, measured: SEMA7A","human, whole blood","dose not given, 24 h",reference: pretreatment baseline,log2 fold change,1.61
CC(C)C[C@H](NC(=O)[C@H](Cc1ccc(O)cc1)NC(=O)[C@@H](CCCNC(=N)N)NC(=O)[C@@H](CO)NC(=O)[C@H](Cc1ccccc1)NC(=O)[C@H](CC1CCCCC1)NC(=O)[C@H](CC(=O)O)NC(=O)CN1CCN(CC(=O)O)CCN(CC(=O)O)CCN(CC(=O)O)CC1)C(=O)N[C@@H](Cc1c[nH]c2ccccc12)C(=O)N[C@@H](CO)C(=O)O [copper-64 labelled],,,"human, bone","concentration not given, 3 h",,activity concentration,328 Bq/mL and 406 Bq/mL and 261 Bq/mL and 455 Bq/mL and 626 Bq/mL and 516 Bq/mL
Cc1cc(-c2ccc(NC(=O)CC[C@H](NC(=O)CN3CCN(CC(=O)O)CCN(CC(=O)O)CCN(CC(=O)O)CC3)C(=O)NCC(=O)N[C@@H](CC(N)=O)C(=O)N[C@H](C(=O)N[C@H](C(=O)N[C@@H](CCCNC(=N)N)C(=O)N[C@@H](CCC(N)=O)C(=O)O)C(C)C)C(C)C)c(C)c2)ccc1/N=N/c1ccc2c(S(=O)(=O)O)cc(S(=O)(=O)O)c(N)c2c1O [copper-64 labelled],,,"nude mice, heart","intravenous, 1 h",,tissue uptake,19.3 ± 2.57 %ID/g
CCCC[C@H](NC(=O)CCCCCCCNC(=O)CN1CCN(CC(=O)O)CCN(CC(=O)O)CC1)C(=O)N[C@H]1CC(=O)NCCCC[C@@H](C(N)=O)NC(=O)[C@H](Cc2c[nH]c3ccccc23)NC(=O)[C@H](CCCNC(=N)N)NC(=O)[C@@H](Cc2ccccc2)NC(=O)[C@H](Cc2c[nH]cn2)NC1=O [technetium-99m labelled],,,"C57 mouse, blood","intravenous, 0.037 MBq, 24 h",,tissue uptake,0.06 ± 0.17 %ID/g
N#C[C@@H]1CC(F)(F)CN1C(=O)CNC(=O)c1ccnc2ccc(OCCCN3CCN(C(=O)CN4CCN(CC(N)=O)CCN(CC(N)=O)CCN(CC(N)=O)CC4)CC3)cc12 [lead-203 labelled],,,"male NRG mice HEK293T-hFAP tumour, blood","intravenous, 100 pmol, 1 h, unblocked",,tissue uptake,1.59 ± 0.16 %ID/g
CC(C)C[C@H](NC(=O)[C@@H](CCCCNC(=O)[C@@H](Cc1ccccc1)NC(=O)CCCCCNC(=O)CN1CCN(CC(=O)O)CCN(CC(=O)O)CCN(CC(=O)O)CC1)NC(=O)[C@H](Cc1ccc(O)cc1)NC(=O)[C@H](CO)NC(=O)[C@H](Cc1c[nH]c2ccccc12)NC(=O)[C@H](Cc1c[nH]cn1)NC(=O)[C@@H]1CCC(=O)N1)C(=O)N[C@@H](CCCNC(=N)N)C(=O)N1CCC[C@H]1C(=O)NCC(N)=O [indium-111 labelled],,,"female athymic nude mice, blood","intravenous, 0.037 MBq, 1 h",,tissue uptake,0.32 ± 0.21 %ID/g
N#C[C@@H]1CC(F)(F)CN1C(=O)CNC(=O)c1ccnc2ccc(OCCCN3CCN(C(=S)Nc4ccc(C[C@H]5CN(CC(N)=O)CCN(CC(N)=O)CCN(CC(N)=O)CCN5CC(N)=O)cc4)CC3)cc12 [lead-203 labelled],,,"male NRG mice HEK293T-hFAP tumour, tumour","intravenous, 100 pmol, 1 h, unblocked",,tissue uptake,1.68 ± 0.26 %ID/g
CCc1sc(C(=O)NC2CCN(C)CC2)cc1Br,Trypanosoma cruzi,"reporter mRNA translation, inhibitor, measured: Renilla luciferase mRNA",cell-free extract,"concentration not given, test 1",reference: positive over negative control,translation activity,108% and 93.2%
CCCC[C@@H]1NC(=O)[C@@H](CC(C)C)NC(=O)[C@H](CCCCNC(=O)CN2CCN(CC(=O)O)CCN(CC(=O)O)CC2)NC(=O)[C@@H](CO)NC(=O)[C@H](Cc2c[nH]cn2)NC(=O)[C@@H](Cc2c[nH]c3ccccc23)NC1=O [copper-64 labelled],,,"Balb/c mice, brain","intravenous, dose not given",,tissue uptake,0.01 %ID/g
COc1cc(CN(C)CC2CCCN(CCc3ccccc3F)C2)cc(Cl)c1OC (stereo not drawn),Trypanosoma cruzi,"reporter mRNA translation, inhibitor, measured: Renilla luciferase mRNA",cell-free extract,"concentration not given, test 1",reference: positive over negative control,translation activity,96.9% and 82.5%
CC(C)C[C@@H](NC(=O)[C@@H](CC(C)C)NC(=O)[C@@H](CC(=O)O)NC(=O)[C@@H](CC(C)C)NC(=O)[C@@H](CC(C)C)NC(=O)[C@@H](CC(C)C)NC(=O)[C@H](NC(=O)[C@@H](CC(=O)O)NC(=O)[C@H](NC(=O)[C@H]1CCCN1C(=O)[C@@H](Cc1ccccc1)NC(=O)[C@@H](CC(C)C)NC(=O)[C@@H](CC(C)C)NC(=O)[C@@H](CC(=O)O)NC(=O)[C@@H](CC(C)C)NC(=O)[C@@H](Cc1ccc(O)cc1)NC(=O)[C@@H](C)NC(=O)[C@@H](CCCNC(=N)N)NC(=O)[C@@H](Cc1c[nH]c2ccccc12)NC(=O)[C@H]1CCCN1C(=O)[C@@H](CC(N)=O)NC(=O)[C@@H](CCC(N)=O)NC(=O)[C@@H](CC(=O)O)NC(=O)[C@@H](CC(=O)O)NC(=O)[C@@H](CSC1CC(=O)N(CCNC(=O)CN2CCN(CC(=O)O)CCN(CC(=O)O)CC2)C1=O)NC(=O)[C@@H](C)N)[C@H](C)O)[C@H](C)O)C(=O)N[C@H](Cc1c[nH]c2ccccc12)C(=O)O (stereo partly drawn) [fluorine-18 labelled],,,"female C57BL/6 mice, B16-F10 melanoma, blood","intravenous, 6 h",,tissue uptake,15.3 %ID/g
